# Published values pooled from the literature.
# A part holds a random share of what one study measured.

# Set 1
# Target: Interferon regulatory factor 7, full length, phosphomimetic (IRF7, Homo sapiens, UniProt Q92985, residues 1-503, S471D/S472D/S475D/S476D/S477D/S483D/S484D/S487D)
# Method: protein-binding microarray
# Form: double-stranded DNA, one strand shown
# Medium: in vitro
# Concentration: 2200 nM top
# Notes: 60-bp whole probe
# Added: salmon DNA 0.4 mg/ml
# Relative to: random background probes
# Reading: higher = stronger binding
# Constant ends, left off below: GCCTAGCAC … GTCTTGATTCGCTTGACGCTGCTG
# Construct (chain): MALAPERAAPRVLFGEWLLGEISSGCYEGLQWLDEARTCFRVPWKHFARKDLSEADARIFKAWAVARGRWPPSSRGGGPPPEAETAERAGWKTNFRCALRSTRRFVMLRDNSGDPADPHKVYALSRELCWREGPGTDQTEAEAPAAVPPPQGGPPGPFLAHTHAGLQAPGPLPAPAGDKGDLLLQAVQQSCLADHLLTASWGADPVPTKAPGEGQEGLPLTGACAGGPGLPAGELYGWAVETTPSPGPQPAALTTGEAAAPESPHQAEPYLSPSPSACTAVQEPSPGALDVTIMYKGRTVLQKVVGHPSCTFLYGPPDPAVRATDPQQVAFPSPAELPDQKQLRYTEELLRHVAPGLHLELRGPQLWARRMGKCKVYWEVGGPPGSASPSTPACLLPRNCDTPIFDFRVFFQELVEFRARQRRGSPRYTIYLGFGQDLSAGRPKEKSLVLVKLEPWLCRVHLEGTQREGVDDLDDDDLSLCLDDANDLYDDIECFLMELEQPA
Sequence,fitted relative affinity
GACGGTCGCGGTATCGGGACGTGCTAG,-0.406 z-score
AACGGTTTCCTTTCCCTGACGTGCTAG,4.78 z-score
TTAGGTATCGGTCTCGCTTAGTGCTAG,0.776 z-score
TTAAGACTGGGGACTGGGTTAGTGCTA,-0.714 z-score
GAGGGTTTCGGTCTCGGGACGTGCTAG,3.81 z-score
GACGGACTGGGTTTCGGGGCGTGCTAG,0.263 z-score
TTAGATTTCAGACTGGATTCGTGCTAG,0.407 z-score
GACGAACTGGGGTATCCAGACGTGCTA,-0.328 z-score
TGTTTTAATTTTCTCTTTGGGTGCTAG,4.89 z-score
TCTTTCACAAGACGAAAGGAGTGCTAG,1.36 z-score
TTAGATCTGAGTATCGATTAGTGCTAG,-0.000668 z-score
GACGATTTCGGGGTTCGAGACGTGCTA,1.72 z-score
TTAGGCCTGGGTCTCGGTTAGTGCTAG,-0.661 z-score
TCACCTTCACCTCTCTGACTGTGCTAG,2.3 z-score
TCATTTAGTAGTTTCTAACTGTGCTAG,1.51 z-score
TTAGATTTGAGTATCGATTAGTGCTAG,-0.152 z-score
AACGGACTGGGGTATCGGGACGTGCTA,-0.637 z-score
TCATCCATCACTTTCCAACTGTGCTAG,3.08 z-score
GACGGTTTCGCTTCCGGGACGTGCTAG,8.79 z-score

# Set 2
# Target: Sal-like protein 4, full length isoform B (SALL4, Homo sapiens, UniProt Q9UJQ4-2, residues 1-616)
# Method: universal PBM
# Form: double-stranded DNA, one strand shown
# Medium: in vitro
# Concentration: not given
# Notes: 8-mer, flanks averaged, mean of replicates
# Reading: higher = stronger binding
# Target sequence (chain): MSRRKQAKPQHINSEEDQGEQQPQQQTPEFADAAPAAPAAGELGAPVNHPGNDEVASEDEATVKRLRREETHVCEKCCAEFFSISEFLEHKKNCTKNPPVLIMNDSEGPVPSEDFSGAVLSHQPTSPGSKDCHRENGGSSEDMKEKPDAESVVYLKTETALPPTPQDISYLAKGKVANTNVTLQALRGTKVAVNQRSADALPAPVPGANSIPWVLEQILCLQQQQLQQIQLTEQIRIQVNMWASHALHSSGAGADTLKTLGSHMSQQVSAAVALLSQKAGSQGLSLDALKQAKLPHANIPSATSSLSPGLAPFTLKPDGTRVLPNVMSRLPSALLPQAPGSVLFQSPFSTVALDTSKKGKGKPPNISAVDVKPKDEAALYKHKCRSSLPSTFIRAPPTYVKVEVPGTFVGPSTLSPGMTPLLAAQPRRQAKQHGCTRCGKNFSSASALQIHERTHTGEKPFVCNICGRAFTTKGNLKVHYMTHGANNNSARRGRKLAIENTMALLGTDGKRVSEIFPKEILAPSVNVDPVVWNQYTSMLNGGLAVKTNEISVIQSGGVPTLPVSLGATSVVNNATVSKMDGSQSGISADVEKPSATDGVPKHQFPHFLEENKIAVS
Sequence,E-score
ACTATGAC,0.162
ATTTTCAC,0.171
GTGTGAGA,0.0305
CACCGCAC,-0.333
CTCGCCCC,-0.207
AGTAATTC,0.211
TACTGGCA,0.12
AGCTAAAT,0.113
AAAATTAG,0.283
CGACATGA,0.0237
GAATCTGA,-0.0244
AGCCTCCT,-0.223
AGCCCTCC,-0.322
ACAACCTC,0.00891
CAGCAGAG,-0.272
TGCGGGAA,-0.153
CGCGGCCG,-0.41
CCTAATTC,0.117
CATGCTTA,0.192

# Set 3
# Target: Histone acetyltransferase KAT6A, both winged helices, GST fusion (KAT6A, Homo sapiens, UniProt Q92794, residues 1-181)
# Method: protein binding microarray
# Form: double-stranded DNA, one strand shown
# Medium: in vitro
# Concentration: not given
# Notes: 8-mer, flanks averaged, mean of 2 arrays, mostly near background
# Relative to: not given
# Reading: higher = stronger binding
# Residues (chain): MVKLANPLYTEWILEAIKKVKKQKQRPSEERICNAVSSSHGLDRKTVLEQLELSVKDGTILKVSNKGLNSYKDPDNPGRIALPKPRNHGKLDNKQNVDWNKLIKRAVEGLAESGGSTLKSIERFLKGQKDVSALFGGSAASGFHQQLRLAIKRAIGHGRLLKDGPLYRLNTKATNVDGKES
Sequence,E-score
ACTATCGA,0.07
AACACGGC,0.249
ATATCCAT,-0.121
AGAGTTCG,0.0533
ATCGTATA,-0.0579
AGGTTTGC,-0.161
CGATGACG,0.093
CTTTTACC,-0.112
CGTGTTAG,0.137
ACTCCGGG,0.0739
CTTTGTCA,-0.0722
CTGAATAC,-0.0587
ATGCGCTG,0.239
ATTACGCC,0.0884
ACCCAAGA,-0.268
ATCCGCAA,0.0631
AGCTTCTA,-0.0861
GCGGTAGA,0.228
CGACGACA,-0.0673
GGTACCTA,-0.14
ATGGATCA,-0.0562
CCGTGAAC,0.191
GGAATCCC,-0.0588
GAAGAGAC,0.0308
ATCCCCTC,-0.183

# Set 4
# Target: Prothrombin, mature alpha-thrombin (F2, Homo sapiens, UniProt P00734)
# Method: aptamer microarray, sandwich
# Form: DNA with 2'F-ANA
# Medium: in vitro
# Concentration: 200 nM
# Notes: whole 15-mer aptamer, many near background
# Added: Cy3 exosite-II aptamer, 400 nM
# Reading: higher = stronger binding
# Sequence: GGTTGGTGTGGTTGG
Modification,mean fluorescence intensity [a.u.]
2'F-ANA at 1 2 3 4 5 6 7 9 10 11 12 13 14 15,52
2'F-ANA at 1 2 7 8 9 11 14 15,123
2'F-ANA at 3 4 5 6 7 8 10 11 12 13 15,52
2'F-ANA at 1 5 6 7 10 11,47.3
2'F-ANA at 3 4 5 7 10 11 13 14 15,50.7
2'F-ANA at 2 3 6 11 13 14,332
2'F-ANA at 2 3 4 5 6 8 11 13 14 15,62.1
2'F-ANA at 1 2 4 5 6 8 10 15,48.3
2'F-ANA at 2 6 7 10 12 13 14 15,86.9
2'F-ANA at 1 3 8 10 11 12 13,104
2'F-ANA at 5 8 13,60.7
2'F-ANA at 2 3 4 5 10 12,55.3
2'F-ANA at 2 3 5 6 7 8,118
2'F-ANA at 1 3 4 6 9 10 11 12 13 14 15,54.1
2'F-ANA at 1 5 8 10 11 12 13,47.5
2'F-ANA at 1 2 3 4 5 8 10 12 14 15,89.2
2'F-ANA at 2 3 5 6 7 8 10 11 15,56.2
2'F-ANA at 1 2 3 4 5 7 11 12 13 14,48.3
2'F-ANA at 1 7 8 9 11 13 15,154
2'F-ANA at 1 2 3 4 5 7 8 13 14 15,46.2
2'F-ANA at 2 4 6 7 13 14 15,86.3
2'F-ANA at 1 7 9 10 12 14 15,53.6

# Some of these lines once more (set 4):
Modification,mean fluorescence intensity [a.u.]
2'F-ANA at 2 3 4 5 6 8 11 13 14 15,62.1
2'F-ANA at 1 2 3 4 5 7 11 12 13 14,48.3
2'F-ANA at 2 6 7 10 12 13 14 15,86.9
2'F-ANA at 1 7 8 9 11 13 15,154
2'F-ANA at 2 3 5 6 7 8 10 11 15,56.2
2'F-ANA at 1 7 9 10 12 14 15,53.6
2'F-ANA at 1 5 6 7 10 11,47.3
2'F-ANA at 3 4 5 7 10 11 13 14 15,50.7
2'F-ANA at 1 2 3 4 5 7 8 13 14 15,46.2
2'F-ANA at 1 3 4 6 9 10 11 12 13 14 15,54.1
2'F-ANA at 1 2 7 8 9 11 14 15,123
2'F-ANA at 5 8 13,60.7
2'F-ANA at 2 3 6 11 13 14,332
2'F-ANA at 1 2 3 4 5 6 7 9 10 11 12 13 14 15,52
